Assay results from different studies.
Parts stem from different laboratories: compare values within a part only.
Chain of UniProt P42336 (whole entry, unmodified, looked up): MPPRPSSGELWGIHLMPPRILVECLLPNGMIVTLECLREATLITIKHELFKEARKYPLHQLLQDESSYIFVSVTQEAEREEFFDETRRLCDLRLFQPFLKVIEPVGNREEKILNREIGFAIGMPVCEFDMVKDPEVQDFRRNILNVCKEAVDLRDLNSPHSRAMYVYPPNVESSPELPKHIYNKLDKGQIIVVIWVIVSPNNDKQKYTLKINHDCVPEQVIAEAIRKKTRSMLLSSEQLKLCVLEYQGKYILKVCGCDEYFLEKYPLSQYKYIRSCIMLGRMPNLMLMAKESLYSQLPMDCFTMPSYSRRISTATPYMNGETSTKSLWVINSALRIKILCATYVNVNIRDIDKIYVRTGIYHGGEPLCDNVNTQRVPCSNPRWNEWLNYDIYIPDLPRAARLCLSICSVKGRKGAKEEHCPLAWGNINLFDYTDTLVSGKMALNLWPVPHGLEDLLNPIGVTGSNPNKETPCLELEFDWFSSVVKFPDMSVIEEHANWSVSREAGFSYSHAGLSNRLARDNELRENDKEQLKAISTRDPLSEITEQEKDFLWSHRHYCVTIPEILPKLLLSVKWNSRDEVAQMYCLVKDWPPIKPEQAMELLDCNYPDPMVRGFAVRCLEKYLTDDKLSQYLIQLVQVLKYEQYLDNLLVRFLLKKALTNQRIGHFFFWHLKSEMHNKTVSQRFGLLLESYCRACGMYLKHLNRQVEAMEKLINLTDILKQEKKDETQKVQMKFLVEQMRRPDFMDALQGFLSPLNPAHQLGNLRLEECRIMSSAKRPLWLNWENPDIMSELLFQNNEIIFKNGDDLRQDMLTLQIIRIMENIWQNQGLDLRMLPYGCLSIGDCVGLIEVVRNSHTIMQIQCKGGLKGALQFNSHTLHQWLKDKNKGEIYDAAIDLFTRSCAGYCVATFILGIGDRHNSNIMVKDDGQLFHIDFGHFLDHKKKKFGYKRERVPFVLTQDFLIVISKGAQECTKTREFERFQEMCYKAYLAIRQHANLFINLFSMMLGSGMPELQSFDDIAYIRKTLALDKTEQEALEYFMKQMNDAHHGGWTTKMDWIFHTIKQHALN
Chain of UniProt O23661 (whole entry, looked up): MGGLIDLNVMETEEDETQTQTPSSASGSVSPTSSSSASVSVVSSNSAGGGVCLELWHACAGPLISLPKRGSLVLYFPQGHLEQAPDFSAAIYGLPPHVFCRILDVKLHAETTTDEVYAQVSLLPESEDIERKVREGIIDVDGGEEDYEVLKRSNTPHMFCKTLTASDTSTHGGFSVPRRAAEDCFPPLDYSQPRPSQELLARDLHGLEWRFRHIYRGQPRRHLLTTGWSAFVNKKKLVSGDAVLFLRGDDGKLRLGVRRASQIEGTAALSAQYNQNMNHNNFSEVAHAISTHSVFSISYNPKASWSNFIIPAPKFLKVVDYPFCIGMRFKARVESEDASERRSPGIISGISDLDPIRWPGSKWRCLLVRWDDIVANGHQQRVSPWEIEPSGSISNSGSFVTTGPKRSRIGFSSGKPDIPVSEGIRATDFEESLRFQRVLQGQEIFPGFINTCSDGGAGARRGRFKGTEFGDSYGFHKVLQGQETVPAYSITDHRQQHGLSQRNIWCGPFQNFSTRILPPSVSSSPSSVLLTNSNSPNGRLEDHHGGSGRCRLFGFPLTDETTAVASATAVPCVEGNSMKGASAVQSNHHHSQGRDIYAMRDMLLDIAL
Chain of UniProt Q15418 (whole entry, looked up): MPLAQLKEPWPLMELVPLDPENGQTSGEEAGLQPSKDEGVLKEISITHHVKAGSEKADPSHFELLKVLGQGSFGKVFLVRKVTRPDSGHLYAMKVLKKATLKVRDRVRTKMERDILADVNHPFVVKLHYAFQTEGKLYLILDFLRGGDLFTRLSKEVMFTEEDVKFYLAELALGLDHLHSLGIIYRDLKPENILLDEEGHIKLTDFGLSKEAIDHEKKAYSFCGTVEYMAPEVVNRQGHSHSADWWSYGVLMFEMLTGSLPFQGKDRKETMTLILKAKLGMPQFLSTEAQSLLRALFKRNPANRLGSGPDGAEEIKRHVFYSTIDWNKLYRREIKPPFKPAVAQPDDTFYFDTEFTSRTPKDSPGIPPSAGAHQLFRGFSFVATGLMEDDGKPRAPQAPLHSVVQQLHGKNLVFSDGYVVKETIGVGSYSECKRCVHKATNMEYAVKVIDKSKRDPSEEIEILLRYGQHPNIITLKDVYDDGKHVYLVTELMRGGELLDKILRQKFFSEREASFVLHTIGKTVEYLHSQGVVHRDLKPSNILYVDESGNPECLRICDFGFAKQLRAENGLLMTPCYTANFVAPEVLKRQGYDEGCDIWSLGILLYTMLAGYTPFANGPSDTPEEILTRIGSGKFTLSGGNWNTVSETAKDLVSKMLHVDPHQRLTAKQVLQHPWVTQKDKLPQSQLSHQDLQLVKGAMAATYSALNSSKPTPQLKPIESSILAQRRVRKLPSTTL
Chain of UniProt Q9HBY8 (whole entry, looked up): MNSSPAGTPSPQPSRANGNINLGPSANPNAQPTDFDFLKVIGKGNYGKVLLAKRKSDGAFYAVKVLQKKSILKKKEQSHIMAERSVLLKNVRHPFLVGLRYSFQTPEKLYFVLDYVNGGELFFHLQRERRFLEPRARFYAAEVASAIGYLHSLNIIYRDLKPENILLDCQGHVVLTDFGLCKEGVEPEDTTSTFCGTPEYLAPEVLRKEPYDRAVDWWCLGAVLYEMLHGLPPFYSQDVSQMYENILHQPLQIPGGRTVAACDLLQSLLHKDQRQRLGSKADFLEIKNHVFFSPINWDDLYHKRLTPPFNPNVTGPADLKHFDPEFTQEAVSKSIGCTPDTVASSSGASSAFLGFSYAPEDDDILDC
Chain of UniProt Q9ZSY8 (whole entry, looked up): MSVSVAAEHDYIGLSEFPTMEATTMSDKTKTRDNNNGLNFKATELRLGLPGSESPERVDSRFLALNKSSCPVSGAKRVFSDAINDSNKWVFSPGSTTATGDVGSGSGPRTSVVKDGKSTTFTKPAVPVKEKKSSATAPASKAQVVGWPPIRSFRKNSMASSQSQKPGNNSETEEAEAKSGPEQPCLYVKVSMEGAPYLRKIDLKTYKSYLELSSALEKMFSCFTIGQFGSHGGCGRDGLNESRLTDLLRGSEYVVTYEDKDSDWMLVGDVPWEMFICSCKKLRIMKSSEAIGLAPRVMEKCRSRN
Chain of UniProt Q00537 (whole entry, looked up): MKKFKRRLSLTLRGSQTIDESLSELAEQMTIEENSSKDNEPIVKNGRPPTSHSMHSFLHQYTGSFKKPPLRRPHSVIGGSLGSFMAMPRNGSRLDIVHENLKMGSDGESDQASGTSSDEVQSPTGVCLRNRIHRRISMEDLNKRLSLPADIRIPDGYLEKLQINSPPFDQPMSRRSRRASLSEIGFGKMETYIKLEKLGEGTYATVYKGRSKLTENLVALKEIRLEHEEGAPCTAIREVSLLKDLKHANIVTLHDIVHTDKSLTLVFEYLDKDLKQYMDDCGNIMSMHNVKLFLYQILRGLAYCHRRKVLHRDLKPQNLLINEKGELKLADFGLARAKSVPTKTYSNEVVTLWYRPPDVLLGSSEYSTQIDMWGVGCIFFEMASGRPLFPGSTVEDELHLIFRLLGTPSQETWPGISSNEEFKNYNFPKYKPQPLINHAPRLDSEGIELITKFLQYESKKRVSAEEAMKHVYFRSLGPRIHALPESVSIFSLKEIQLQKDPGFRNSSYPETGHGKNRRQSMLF

Study 1 — technique: protein-binding microarray; molecule type: hairpin DNA; sample: in vitro; tested at: not given; reference: not given; reading: higher = stronger binding
Target: Runt-related transcription factor 1, full length (RUNX1, Homo sapiens, UniProt Q01196-8, residues 1-480)
Setting: whole hairpin DNA, median over replicate spots
Sequence	median fluorescence [a.u.]
CTCAGTTCTGTGGCGTGGACTCCTGTCCACGCCACAGAACTGAGACACTC (5mC at 14)	2060
GAGGCCAGTTGCGGTTGGCCTCCTGGCCAACCGCAACTGGCCTCACACTC	6150
GAGGCCTGTCCGGGTTGGCCTCCTGGCCAACCCGGACAGGCCTCACACTC	1790
CTCAGTCCTGTGGGCTGGACTCCTGTCCAGCCCACAGGACTGAGACACTC (5mC at 7)	1870
GAGGCCTGTCGCGGTTCGCCTCCTGGCGAACCGCGACAGGCCTCACACTC	2300
GAGGCCTGTTGTGGTTTGCCTCCTGGCAAACCACAACAGGCCTCACACTC	4970
GAGGCCTGTTGCGGTTGGCCTCCTGGCCAACCGCAACAGGCCTCACACTC (5mC at 37)	6220
GAGGCCTGTTGTGGTCGGCCTCCTGGCCGACCACAACAGGCCTCACACTC (5mC at 28)	3270

Study 2 — Molecule: B1 (IAA19); technique: two-hybrid; reading: higher = firmer interaction
B1: IAA19 (Arabidopsis thaliana, UniProt O24409); chain MEKEGLGLEITELRLGLPGRDVAEKMMKKRAFTEMNMTSSGSNSDQCESGVVSSGGDAEKVNDSPAAKSQVVGWPPVCSYRKKNSCKEASTTKVGLGYVKVSMDGVPYLRKMDLGSSQGYDDLAFALDKLFGFRGIGVALKDGDNCEYVTIYEDKDGDWMLAGDVPWGMFLESCKRLRIMKRSDATGFGLQPRGVDE
partner	setting	reference	positive tests
IAA27 (Arabidopsis thaliana, UniProt Q9ZSY8)	–	out of 2 tests	1
IAA26 (Arabidopsis thaliana, UniProt Q8LAL2)	–	out of 4 tests	2
ARF17 (Arabidopsis thaliana, UniProt Q84WU6)	weak activation fusion	out of 3 tests	0
ETT (Arabidopsis thaliana, UniProt O23661)	–	out of 4 tests	0
ARF11 500-622 (Arabidopsis thaliana, UniProt Q9ZPY6)	–	out of 4 tests	0
ARF6 790-935 (Arabidopsis thaliana, UniProt Q9ZTX8)	–	out of 4 tests	2
ARF5 788-902 (Arabidopsis thaliana, UniProt P93024)	–	out of 4 tests	4
ARF8 699-811 (Arabidopsis thaliana, UniProt Q9FGV1)	–	out of 4 tests	4

Study 3 — effect on: enzyme activity; action: inhibitor; tested at: 0.5 µM; reference: control
Target: Mitogen-activated protein kinase 8 (MAPK8, Homo sapiens, UniProt P45983)
Chain of UniProt P45983 (whole entry, looked up): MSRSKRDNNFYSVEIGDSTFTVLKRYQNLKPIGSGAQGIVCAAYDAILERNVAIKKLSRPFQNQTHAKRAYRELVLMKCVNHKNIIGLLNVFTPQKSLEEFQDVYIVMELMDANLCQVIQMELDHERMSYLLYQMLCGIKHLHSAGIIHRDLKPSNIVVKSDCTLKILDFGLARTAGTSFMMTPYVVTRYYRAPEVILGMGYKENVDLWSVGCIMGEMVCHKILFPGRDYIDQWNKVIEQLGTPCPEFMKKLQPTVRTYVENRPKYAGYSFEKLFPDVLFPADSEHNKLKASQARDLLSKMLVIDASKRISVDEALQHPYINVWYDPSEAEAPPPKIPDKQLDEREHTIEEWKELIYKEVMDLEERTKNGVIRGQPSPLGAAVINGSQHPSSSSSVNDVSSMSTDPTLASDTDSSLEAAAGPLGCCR
Compound	remaining activity [%]
O=C(CCCc1ccc(-c2ccccc2F)cc1)Nc1ccc(O)cc1	103
O=C(O)c1ccc2c3c1cccc3c(=O)n1c3ccccc3nc21	98
Cn1sc(=O)n(Cc2ccccc2)c1=O	85.5
C#Cc1cccc(Nc2ncnc3cc(OCCOC)c(OCCOC)cc23)c1	95.5
CC(C)[C@H](CO)Nc1nc(Nc2cc(N)cc(Cl)c2)c2ncn(C(C)C)c2n1	93.4
COc1cc2ncnc(Nc3ccc(F)c(Cl)c3)c2cc1OCCCN1CCOCC1	93.1
CN(C)c1ccc(C=C2C(=O)Nc3ccccc32)cc1	103
N#CC(C#N)=C(N)/C(C#N)=C/c1ccc(O)cc1	100
O=S(=O)(c1cccc2cnccc12)N1CCCNCC1	89.7
COc1cc2ncnc(Nc3ccc(Oc4ccccc4)cc3)c2cc1OC	91.8
OCC(O)CCON=C1C(c2c(O)[nH]c3ccccc23)=Nc2ccccc21 (stereo not shown)	101
O=c1c2ccccc2[nH]c(=S)n1CCN1CCC(=C(c2ccc(F)cc2)c2ccc(F)cc2)CC1	98.9
CNC(=O)c1cc(Oc2ccc(NC(=O)Nc3ccc(Cl)c(C(F)(F)F)c3)cc2)ccn1	92.8
Cn1c2ccccc2c2c3c(c4c5ccccc5n(CCC#N)c4c21)CNC3=O	78.7
COc1cc2nccc(Oc3ccc(NC(=S)NC(=O)c4ccccc4C)cc3)c2cc1OC	81.3

Study 4 — effect on: cell-free assay; technique: competition with immobilised ligand; tested at: 1 µM
SMILES: CCCCN(CCCC)C(=O)CN1C[C@H](c2cc(OC)c3c(c2)OCO3)[C@@H](C(=O)O)[C@@H]1CC(C)(C)CCC
target	remaining binding [%]
Serine/threonine-protein kinase ULK2 (ULK2, Homo sapiens, UniProt Q8IYT8)	88.8
Serine/threonine-protein kinase pim-2 (PIM2, Homo sapiens, UniProt Q9P1W9)	100
Mast/stem cell growth factor receptor Kit (KIT, Homo sapiens, UniProt P10721, V559D)	96.1
STE20-like serine/threonine-protein kinase (SLK, Homo sapiens, UniProt Q9H2G2)	100
Receptor-type tyrosine-protein kinase FLT3 (FLT3, Homo sapiens, UniProt P36888)	100
Serine/threonine-protein kinase TAO1 (TAOK1, Homo sapiens, UniProt Q7L7X3)	55.6
Cyclin-dependent kinase 17 (CDK17, Homo sapiens, UniProt Q00537)	99.3
Ribosomal protein S6 kinase alpha-1, C-terminal kinase domain (RPS6KA1, Homo sapiens, UniProt Q15418)	100
NUAK family SNF1-like kinase 2 (NUAK2, Homo sapiens, UniProt Q9H093)	79.4
Serine/threonine-protein kinase Sgk2 (SGK2, Homo sapiens, UniProt Q9HBY8)	69.9
NUAK family SNF1-like kinase 1 (NUAK1, Homo sapiens, UniProt O60285)	100
Phosphatidylinositol 4,5-bisphosphate 3-kinase catalytic subunit alpha isoform (PIK3CA, Homo sapiens, UniProt P42336, M1043I)	83.7
Myosin-IIIa (MYO3A, Homo sapiens, UniProt Q8NEV4)	100
Myosin light chain kinase 2, skeletal/cardiac muscle (MYLK2, Homo sapiens, UniProt Q9H1R3)	100
Serine/threonine-protein kinase PLK3 (PLK3, Homo sapiens, UniProt Q9H4B4)	90.6
Phosphatidylinositol 4,5-bisphosphate 3-kinase catalytic subunit alpha isoform (PIK3CA, Homo sapiens, UniProt P42336, H1047L)	100
Epidermal growth factor receptor (EGFR, Homo sapiens, UniProt P00533, G719C)	95.4
Dual specificity tyrosine-phosphorylation-regulated kinase 2 (DYRK2, Homo sapiens, UniProt Q92630)	71.4

Excerpt of the above (study 3):
Compound	remaining activity [%]
C#Cc1cccc(Nc2ncnc3cc(OCCOC)c(OCCOC)cc23)c1	95.5
OCC(O)CCON=C1C(c2c(O)[nH]c3ccccc23)=Nc2ccccc21 (stereo not shown)	101
O=S(=O)(c1cccc2cnccc12)N1CCCNCC1	89.7
COc1cc2nccc(Oc3ccc(NC(=S)NC(=O)c4ccccc4C)cc3)c2cc1OC	81.3
Cn1sc(=O)n(Cc2ccccc2)c1=O	85.5
O=C(O)c1ccc2c3c1cccc3c(=O)n1c3ccccc3nc21	98
O=C(CCCc1ccc(-c2ccccc2F)cc1)Nc1ccc(O)cc1	103
